Experimental data from different studies.
Lines come from different studies, so protocols differ.

Nc1ncnc2c([C@@H]3N[C@H](CO)[C@@H](O)[C@H]3O)c[nH]c12  antigen-positive cells (Zaire ebolavirus; antibody staining; HeLa, Kikwit; 25 µM): 2.8%
ITEEVGHTDLMAAY  frequency of responding donors (AIM; peptide, CD8+ T cells from PBMC, human donors; HLA-A*01:01 restricted, unit not given; reference: positive over tested donors): 50
CC[C@H](C)[C@H](NC(=O)[C@H](CC(C)C)NC(=O)[C@H](Cc1c[nH]c2ccccc12)NC(=O)[C@H](CCC(N)=O)NC(=O)[C@@H](NC(=O)[C@H](Cc1ccccc1)NC(=O)[C@H](C)NC(=O)[C@H](CCCCNC(=O)COCCOCCNC(=O)COCCOCCNC(=O)CC[C@H](NC(=O)CCCCCCCCCCCCCCCCCCC(=O)O)C(=O)O)NC(=O)[C@H](CCC(N)=O)NC(=O)[C@H](C)NC(=O)[C@@H](NC(=O)[C@H](CCCCN)NC(=O)[C@H](CC(=O)O)NC(=O)[C@H](CC(C)C)NC(=O)C(C)(C)NC(=O)[C@@H](NC(=O)[C@H](CO)NC(=O)[C@H](Cc1ccc(O)cc1)NC(=O)[C@H](CC(=O)O)NC(=O)[C@H](CO)NC(=O)[C@@H](NC(=O)[C@H](Cc1ccccc1)NC(=O)[C@@H](NC(=O)CNC(=O)[C@H](CCC(=O)O)NC(=O)C(C)(C)NC(=O)[C@@H](N)Cc1ccc(O)cc1)[C@@H](C)O)[C@@H](C)O)[C@@H](C)CC)[C@@H](C)CC)C(C)C)C(=O)N[C@@H](C)C(=O)NCC(=O)NCC(=O)N1CCC[C@H]1C(=O)N[C@@H](CO)C(=O)N[C@@H](CO)C(=O)NCC(=O)N[C@@H](C)C(=O)N1CCC[C@H]1C(=O)N1CCC[C@H]1C(=O)N1CCC[C@H]1C(=O)N[C@@H](CO)C(N)=O  cough (healthy human; 0.25 mg, single ascending dose): 0%
IATNGPLKVGGSCVL  responding donors (human CD4 T cells; AIM; peptide): 8%
CCO.C[C@H]1c2cccc(O)c2C(O)=C2C(=O)[C@]3(O)C(O)=C(C(N)=O)C(=O)[C@@H](N(C)C)[C@@H]3[C@@H](O)[C@@H]21.C[C@H]1c2cccc(O)c2C(O)=C2C(=O)[C@]3(O)C(O)=C(C(N)=O)C(=O)[C@@H](N(C)C)[C@@H]3[C@@H](O)[C@@H]21.Cl.Cl.O  inhibition (Replicase polyprotein 1ab, main protease (rep, Severe acute respiratory syndrome coronavirus 2, UniProt P0DTD1); reporter gene (mKate2), inhibitor; 20 µM): 0.901%

For quick reference, copied from above:
CCO.C[C@H]1c2cccc(O)c2C(O)=C2C(=O)[C@]3(O)C(O)=C(C(N)=O)C(=O)[C@@H](N(C)C)[C@@H]3[C@@H](O)[C@@H]21.C[C@H]1c2cccc(O)c2C(O)=C2C(=O)[C@]3(O)C(O)=C(C(N)=O)C(=O)[C@@H](N(C)C)[C@@H]3[C@@H](O)[C@@H]21.Cl.Cl.O  inhibition (Replicase polyprotein 1ab, main protease (rep, Severe acute respiratory syndrome coronavirus 2, UniProt P0DTD1); reporter gene (mKate2), inhibitor; 20 µM): 0.901%
